Measured values gathered from unrelated publications.
Numbered parts are unrelated; each lists some results of a single study. Changes are numbered by the printed parent chain.

Set 1
Target: CCND3, cyclin fold, Cln2 fusion (human)
Technique: yeast growth competition, sequencing
Sample: yeast
Notes: weak parent motif
Reference: not given
Reading: higher = stronger binding
Starting sequence: RBL1 docking peptide (human); GSAKRRLFGEDPP
Change | normalised enrichment score
GSAKRLLFGEDPP [R6L] | 0.0999
GSAKRRLFGEDPA [P13A] | 0.13
GSAKRRLFGMDPP [E10M] | 0.205
GSAKRRLFGEDPW [P13W] | 0.195
GCAKRRLFGEDPP [S2C] | 0.209
GMAKRRLFGEDPP [S2M] | 0.107
GTAKRRLFGEDPP [S2T] | 0.0684
GSAKARLFGEDPP [R5A] | 0.161
GSAKRILFGEDPP [R6I] | 0.143
GSAKRRLFGEDYP [P12Y] | 0.114
GSAKRRLGGEDPP [F8G] | 0.0477
GSAKRRLFGEDPR [P13R] | 0.121
GSAKRRSFGEDPP [L7S] | -0.0156
GSAKRRLFGEFPP [D11F] | 0.033
GSAKRRLFGEDPC [P13C] | 0.113
GSAKRRLFGEDPL [P13L] | 0.113
GSAKRRLFGEDHP [P12H] | 0.0967
GSAKRDLFGEDPP [R6D] | 0.00918
GSAKRRLFMEDPP [G9M] | 0.131
GSAKRRLFGEDLP [P12L] | 0.107
NSAKRRLFGEDPP [G1N] | 0.0993
GSAKRRLFGEDNP [P12N] | 0.0728
GSAKSRLFGEDPP [R5S] | 0.161
GSAKRRYFGEDPP [L7Y] | 0.0527
GSAKRRLFGEKPP [D11K] | 0.162

Set 2
Target: Interferon regulatory factor 7, full length, phosphomimetic (IRF7, Homo sapiens, UniProt Q92985, residues 1-503, S101K/S471D/S472D/S475D/S476D/S477D/S483D/S484D/S487D)
Technique: protein-binding microarray
Form: double-stranded DNA, one strand shown
Sample: in vitro
Tested at: 250 nM
Notes: 60-bp whole probe
Added: salmon DNA 0.4 mg/ml
Reference: random background probes
Reading: higher = stronger binding
Constant ends, left off below: GCCTAGCAC … GTCTTGATTCGCTTGACGCTGCTG
Construct (chain): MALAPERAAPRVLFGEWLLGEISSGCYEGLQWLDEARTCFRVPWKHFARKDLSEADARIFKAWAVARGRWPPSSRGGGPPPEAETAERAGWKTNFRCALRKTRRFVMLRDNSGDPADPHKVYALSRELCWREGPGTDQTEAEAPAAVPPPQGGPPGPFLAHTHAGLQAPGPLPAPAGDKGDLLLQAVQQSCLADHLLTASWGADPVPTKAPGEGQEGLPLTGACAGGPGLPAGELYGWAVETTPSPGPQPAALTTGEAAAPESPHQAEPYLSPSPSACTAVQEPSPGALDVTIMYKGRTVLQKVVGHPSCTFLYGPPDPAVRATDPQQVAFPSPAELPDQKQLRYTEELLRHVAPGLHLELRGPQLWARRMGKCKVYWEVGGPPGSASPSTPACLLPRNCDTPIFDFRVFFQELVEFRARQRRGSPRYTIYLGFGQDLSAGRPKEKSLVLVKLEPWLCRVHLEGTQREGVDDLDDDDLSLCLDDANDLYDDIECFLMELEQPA
Oligonucleotide | log fluorescence [z-score]
GGTCTTTCTGTTTTCTCCATGTGCTAG | 1.78
GACTGTCTCGGTTTCGGGACGTGCTAG | 5.33
TTAGGTATCGGGTTACGGTTAGTGCTA | 3.41
TCAAATATTCATTTTATACTGTGCTAG | 0.742
TCATGGGTCTTGTCTGGAACTGTGCTA | -0.78
TTTGGTCTCGGTATCGGTTAGTGCTAG | 3.89
GACGGACTGGGGTCTCGGGACGTGCTA | -0.555
GACGGTATCGGGATTCGGGACGTGCTA | 0.833
TCACCATCCTGTATGGAACTGTGCTAG | -0.0884
GACGATCTGGGGTTTCGAGACGTGCTA | 1.87
TTAGGTTCCTTTTTCCTTTAGTGCTAG | 4.63
CTAGGTATCCTACTGCTTTAGTGCTAG | 0.0463
GACGATCTCAGACTGGAGAGGTGCTAG | -0.705
TCAACTTTAACTTATTCTACTGTGCTA | 0.426
TTAGATCTCAGTTTGGATTAGTGCTAG | 0.241
GACGTTATCGACTATCGGGACGTGCTA | -0.0593
GACGGACTGCTAATCCTGACGTGCTAG | -0.606
TTTGGACTGCTTATCCTTTAGTGCTAG | -0.434
TCATCTCTGGTCTTTGTACTGTGCTAG | 0.187
TTAGATTTCAGACCGGATTAGTGCTAG | 0.39
TTCTTAATGCTTCTGGACCAGTGCTAG | -0.0563
TTAGGTATCGACACTGGGGTAGTGCTA | -0.0578
ACTTGTATTTGTCCCTATTTGTGCTAG | 2.05
TATTCTCTACTTGTGTCTAGGTGCTAG | 3.59

Set 3
Target: Ras GTPase-activating protein-binding protein 1, RRM domain (G3BP1, Homo sapiens, UniProt Q13283)
Chain of UniProt Q13283 (whole entry, looked up): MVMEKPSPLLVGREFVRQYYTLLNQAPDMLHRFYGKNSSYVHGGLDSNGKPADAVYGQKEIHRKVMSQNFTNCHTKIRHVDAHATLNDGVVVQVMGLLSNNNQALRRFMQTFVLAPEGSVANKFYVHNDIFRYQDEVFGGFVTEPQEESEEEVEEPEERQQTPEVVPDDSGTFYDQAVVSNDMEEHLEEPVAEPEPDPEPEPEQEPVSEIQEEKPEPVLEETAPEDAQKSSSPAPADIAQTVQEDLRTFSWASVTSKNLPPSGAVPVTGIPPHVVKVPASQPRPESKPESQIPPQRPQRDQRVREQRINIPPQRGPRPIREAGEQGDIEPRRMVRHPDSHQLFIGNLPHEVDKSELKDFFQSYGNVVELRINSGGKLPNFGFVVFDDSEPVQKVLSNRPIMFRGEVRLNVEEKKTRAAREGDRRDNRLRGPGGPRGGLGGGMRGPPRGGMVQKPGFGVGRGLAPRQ
Technique: RNA Bind-n-Seq
Form: RNA
Sample: in vitro
Tested at: 1 µM
Notes: whole 134-nt RNA, ends assumed
Added: 150 mM KCl
Reference: input library
Reading: higher = stronger binding
Oligonucleotide | log2 enrichment
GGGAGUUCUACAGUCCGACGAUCCACAGACAACACGCACCCACACAGACACAGAGGGAAGGGGUUGGGAUGGGGACAAGGUGCACAGCAGGGCGGGGUAGGACCCCAGCCCCUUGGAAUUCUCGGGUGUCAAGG | 0.63
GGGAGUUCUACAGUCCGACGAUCCAAGUCCUGUGCUACACAUCGUAUGUACCGAAUCGGGAGGGAGGGUUUUUUUGGGAAAGUAUUAUGUUACGCCGUUCGGAUCUGCACUUCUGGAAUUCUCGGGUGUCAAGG | 0.64
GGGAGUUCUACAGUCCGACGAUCCCUCAAGUCCUGUGCUACACAUCGUAUGUACCGAAUCGGGUUGGUUGGGUUGGAAAGUAUUAUGUUACGCCGUUCGGAUCUGCACUUCCAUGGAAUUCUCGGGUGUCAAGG | -0.279
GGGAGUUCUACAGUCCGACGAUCCUCAAGUCCUGUGCUACACAUCGUAUGUACCGAAUCGGCCGGGGCCGGCCGGGGAAAGUAUUAUGUUACGCCGUUCGGAUCUGCACUUCCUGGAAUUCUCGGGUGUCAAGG | -0.217
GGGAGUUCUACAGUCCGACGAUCAAGUCCUGUGCUACACAUCGUAUGUACCGAAUCGGCCCCGGGGCCCCGGGGCCCCGGAAAGUAUUAUGUUACGCCGUUCGGAUCUGCACUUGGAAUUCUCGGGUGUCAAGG | -0.172
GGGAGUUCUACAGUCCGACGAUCUGGCCCUGGUGGCAUGCGGGGAGGAAGAGGUGGCCUCAUGGAUCGUGCUGGUCCCGGUGGAAUGUUCAGAGGUGGCCGUGGUGGAGACAGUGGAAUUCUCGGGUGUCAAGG | 0.315
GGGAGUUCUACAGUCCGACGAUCCCUGUGCUACACAUCGUAUGUACCGAAUCGGGGUUUUUUGGUUUUUUGGGGUUUUUUGGGGAAAGUAUUAUGUUACGCCGUUCGGAUCUGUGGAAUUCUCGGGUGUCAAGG | -0.307
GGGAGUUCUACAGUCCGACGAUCGUCCUGUGCUACACAUCGUAUGUACCGAAUCGGUUUUUUGGGUUUUUUGGUUUUUUGGAAAGUAUUAUGUUACGCCGUUCGGAUCUGCACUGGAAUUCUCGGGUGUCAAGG | -0.174
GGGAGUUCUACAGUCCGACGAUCACCAUGCAGGUGGGCAUCUUUGGGAAGUGGGGCAAGGGGGGGAUAGGGAGGGGGGUAACACUUUGGGAACUGGUGGUCCCAGGUCGUUUCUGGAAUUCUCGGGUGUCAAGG | 0.631
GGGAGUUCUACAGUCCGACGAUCCUCAAGUCCUGUGCUACACAUCGUAUGUACCGAAUCGGAAGGAAGGGGAAGGGAAAGUAUUAUGUUACGCCGUUCGGAUCUGCACUUCCAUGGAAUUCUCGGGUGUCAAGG | -0.137
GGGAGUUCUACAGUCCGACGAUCGCAGGAAGUAAAAACAAAUGGAAAUGCUUCGGAUAGUGGCAGGGGUGGGGGUUGCUAAGGAAAGAGUGGGAUGGGAGUGGGUAAAGAGUUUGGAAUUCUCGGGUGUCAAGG | 0.817
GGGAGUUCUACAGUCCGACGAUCAAGUCCUGUGCUACACAUCGUAUGUACCGAAUCGGGAAAGGGUGGGAAAAAAAGGGAAAGUAUUAUGUUACGCCGUUCGGAUCUGCACUUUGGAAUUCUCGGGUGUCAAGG | 0.406
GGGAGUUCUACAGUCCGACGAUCUGGGAGGUGGAUUUUGUUUAUUUUUUUAGCUCAUUUCCAGGGGUGGGAAUUUUUUUUUAAUAUGUGUCAUGAAUAAAAUUGUUUUUGAAAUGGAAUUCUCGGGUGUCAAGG | 1.18
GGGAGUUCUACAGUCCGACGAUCACCAUCCAGGUGGGCAUCUUUGGGAAGUGGGGCAAGGGGGGGAUAGGGAGGGGGGUAACACUUUGGGAACAGGUGGUCCCAGGUCGUUUCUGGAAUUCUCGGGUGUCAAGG | -0.525

Set 4
Target: Histone acetyltransferase KAT6A, winged helix 1, GST fusion (KAT6A, Homo sapiens, UniProt Q92794, residues 1-85)
Technique: protein binding microarray
Form: double-stranded DNA, one strand shown
Sample: in vitro
Tested at: not given
Notes: 8-mer, flanks averaged, mean of 2 arrays, mostly near background
Reference: not given
Reading: higher = stronger binding
Construct (chain): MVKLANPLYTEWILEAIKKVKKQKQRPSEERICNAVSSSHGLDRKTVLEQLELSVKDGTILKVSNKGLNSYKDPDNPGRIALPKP
Oligonucleotide | E-score
GGTACGCA | 0.107
AACAGGAC | -0.194
AAACTTTG | -0.116
AACGTCTT | -0.127
CACAATGA | -0.317
CCGAGAGA | -0.0924
TAAGGTAA | -0.102
GTGCCCTA | -0.0843
CGTCTTAG | 0.0155
CCCACACA | -0.173
CAAAGTGG | -0.248
CGCGCTGC | 0.416
CGGGATGA | 0.166
GCATCGCA | 0.106
ATGAGCTA | 0.0126
TATCACAA | -0.18
TCAGAAAA | -0.282
AAGATTGG | -0.109

Set 5
Target: PABPC1L2, full length, GST fusion (mouse, UniProt A0ABA7IW68)
Technique: RNAcompete
Form: RNA
Sample: in vitro
Tested at: 20 nM
Notes: 7-mer, probes averaged, single round
Reference: mean of 7-mers
Reading: higher = stronger binding
Residues (chain): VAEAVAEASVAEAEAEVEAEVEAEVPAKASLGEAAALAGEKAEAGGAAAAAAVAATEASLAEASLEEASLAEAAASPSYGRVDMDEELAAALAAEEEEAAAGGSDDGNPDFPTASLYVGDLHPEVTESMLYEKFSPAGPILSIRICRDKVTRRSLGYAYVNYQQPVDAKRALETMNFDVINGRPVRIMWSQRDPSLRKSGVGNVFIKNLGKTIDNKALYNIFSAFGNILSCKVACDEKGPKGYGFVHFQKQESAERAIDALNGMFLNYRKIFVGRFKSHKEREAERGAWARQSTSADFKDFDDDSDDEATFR
Oligonucleotide | 7-mer Z-score
UGGGAGA | 0.0932
GGGCGCA | 0.401
ACCUCCA | -0.222
CUUCGAC | -0.32
UGGAGAG | 0.0207
UAUUUGC | -0.403
CUAACCU | -0.2
CAAACUA | 0.196
CUUGCCG | -0.24
GUUGAAA | 0.336
CCGAAGG | -0.108
CCUACCG | -0.311
UAACCUU | -0.331
CUAUCCU | -0.309
AGCCGAC | -0.186
AGACUGA | -0.162
AUCCAUG | -0.0428
UAUGAGA | 0.0334
GAGAAAU | 0.644
GGUCGCC | -0.365
UCAGACU | -0.217
GGAUCUU | 0.017
GUGUAGU | -0.142
CGACUGC | -0.141
UCACUGA | -0.18

Set 6
Target: Sal-like protein 4, full length isoform A (SALL4, Homo sapiens, UniProt Q9UJQ4, residues 1-1053)
Chain of UniProt Q9UJQ4 (whole entry, looked up): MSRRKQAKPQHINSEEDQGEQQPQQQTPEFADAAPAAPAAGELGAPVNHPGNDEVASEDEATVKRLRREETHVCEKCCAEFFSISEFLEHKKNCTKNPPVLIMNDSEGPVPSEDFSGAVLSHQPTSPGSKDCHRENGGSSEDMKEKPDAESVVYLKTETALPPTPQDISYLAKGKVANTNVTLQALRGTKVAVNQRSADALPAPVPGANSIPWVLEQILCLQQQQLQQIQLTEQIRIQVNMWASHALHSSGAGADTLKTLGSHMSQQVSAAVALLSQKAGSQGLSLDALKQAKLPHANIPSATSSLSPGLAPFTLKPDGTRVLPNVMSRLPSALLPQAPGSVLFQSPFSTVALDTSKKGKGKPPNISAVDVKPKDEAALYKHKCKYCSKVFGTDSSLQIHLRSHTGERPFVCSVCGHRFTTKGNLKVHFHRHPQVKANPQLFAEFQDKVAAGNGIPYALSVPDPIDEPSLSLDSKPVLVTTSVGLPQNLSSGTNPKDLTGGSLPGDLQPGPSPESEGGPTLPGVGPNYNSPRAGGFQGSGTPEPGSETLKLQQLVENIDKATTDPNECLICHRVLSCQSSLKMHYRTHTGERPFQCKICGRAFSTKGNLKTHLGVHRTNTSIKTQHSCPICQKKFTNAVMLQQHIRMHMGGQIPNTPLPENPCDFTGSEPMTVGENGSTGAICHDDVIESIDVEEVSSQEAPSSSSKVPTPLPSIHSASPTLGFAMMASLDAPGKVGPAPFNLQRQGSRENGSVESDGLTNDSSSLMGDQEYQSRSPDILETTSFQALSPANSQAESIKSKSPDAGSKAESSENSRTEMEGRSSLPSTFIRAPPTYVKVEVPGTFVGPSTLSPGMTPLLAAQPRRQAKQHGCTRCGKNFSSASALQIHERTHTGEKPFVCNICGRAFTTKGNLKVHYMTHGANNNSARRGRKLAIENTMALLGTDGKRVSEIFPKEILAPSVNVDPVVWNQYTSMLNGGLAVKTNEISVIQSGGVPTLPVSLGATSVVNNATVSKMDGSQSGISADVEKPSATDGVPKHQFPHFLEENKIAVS
Technique: universal PBM
Form: double-stranded DNA, one strand shown
Sample: in vitro
Tested at: 600 nM
Notes: 8-mer, flanks averaged, mean of replicates
Reading: higher = stronger binding
Oligonucleotide | E-score
CATCGCCG | -0.175
AAGCCCGC | -0.228
GGACGCGA | -0.15
AAAGACCA | -0.0469
ACGGCCAA | -0.103
TCCGGACA | -0.184
ACTGATCG | -0.137
GCGCCAGA | -0.231
CCCCTCGC | -0.192
AGCTGCGA | -0.138
GCAGGTCA | -0.118
ACGACAGG | -0.119
GCCACCGC | -0.295
AGTAATGA | 0.254
GTGTCGCA | -0.179
AAAGTAAG | 0.167
GATCACAA | 0.169
AGTATGTA | 0.24
CGGAGAAC | -0.1
AGTCGGCC | -0.275
ACTTAAGA | 0.241
AAAGTAAT | 0.322
ATCCGTGA | -0.0678
CGTGGCTC | -0.325
CTGGGGCC | -0.414

A few entries again (set 4):
Oligonucleotide | E-score
CGTCTTAG | 0.0155
AAACTTTG | -0.116
TCAGAAAA | -0.282
CAAAGTGG | -0.248
AACAGGAC | -0.194
AACGTCTT | -0.127
TAAGGTAA | -0.102
CGGGATGA | 0.166
GCATCGCA | 0.106
CGCGCTGC | 0.416
AAGATTGG | -0.109
GTGCCCTA | -0.0843
CCCACACA | -0.173
CACAATGA | -0.317
CCGAGAGA | -0.0924
ATGAGCTA | 0.0126
GGTACGCA | 0.107
TATCACAA | -0.18
